Assay results pooled from the literature.
Lines come from different studies, so protocols differ. Numbers after ± are the reported error.

The tissue uptake of `CN[C@@](C)(C[18F])C(=O)O` is reported as 1.1 ± 0.1 %ID/g (SCID mouse A549 xenograft, blood; 60 min, post injection).
For `[123I]c1cncc(OC[C@@H]2CCN2)c1`, the tissue/plasma ratio was 17.1 (SPECT; human, occipital lobe; intravenous bolus plus infusion, 5.2 mCi; relative to: tissue over plasma).
`CC[C@H](C)[C@H](NC(=O)[C@H](Cc1ccccc1)NC(=O)[C@H](CC(=O)O)NC(=O)[C@H](CCCNC(=N)N)NC(=O)[C@H](Cc1ccccc1)NC(=O)[C@H](Cc1ccccc1)NC(=O)[C@H](CCCCN)NC(=O)[C@H](CO)NC(=O)[C@H](CC(C)C)NC(=O)[C@H](CCCNC(=N)N)NC(=O)[C@H](CCSC)NC(=O)[C@@H](N)CCC(=O)O)C(=O)N[C@@H](CC(C)C)C(=O)N[C@@H](CCC(N)=O)C(=O)N[C@@H](CCCNC(=N)N)C(=O)N[C@@H](CCCCN)C(=O)N[C@@H](CCCCN)C(=O)O` — result for hemolysis: “not toxic” (rabbit erythrocytes; concentration not given, 30 min, 37 °C; relative to: Triton X-100).
`CC1=C2C[C@H]3[C@@H](CC[C@@H]4C[C@H](NS(C)(=O)=O)CC[C@@]43C)[C@@H]2CC[C@@]2(C1)O[C@@H]1C[C@H](C)CN[C@H]1[C@H]2C` — result for “deaths from disease progression”: 11% (safety; human patients; dose not given, within 30 days of discontinuation, phase I dose escalation; relative to: patients).
`CC[C@H]1CN2CCc3cc(OC)c(OC)cc3[C@@H]2C[C@@H]1C[C@H]1NCCc2cc(OC)c(OC)cc21` — result for “time to convulsions and death”: no more than 1 min (mouse, male; intravenous, 16 mg/kg, single toxic dose).
`COC(=O)N[C@H](C(=O)N1CCC[C@H]1C(=O)Nc1ccc([C@@H]2CC[C@@H](c3ccc(NC(=O)[C@@H]4CCCN4C(=O)[C@@H](NC(=O)OC)C(C)C)cc3)N2c2ccc(C(C)(C)C)cc2)cc1)C(C)C` gave an AUC(0-24) of 1480 ng·h/mL (healthy human volunteers, plasma; oral, dose not given, with: omeprazole plus 2D regimen).
For `C[N+](C)(C)[C@@H](Cc1c[nH]c(=S)[nH]1)C(=O)[O-]`, “decrease in tissue partition coefficient” read 60.1% (rat treated with 1,25-dihydroxyvitamin D3, kidney; intravenous; relative to: untreated control rats).
`CC(C)C(=O)OC[C@H]1O[C@@H](n2ccc(NO)nc2=O)[C@H](O)[C@@H]1O` gave a remaining compound of 100.3 ± 0.99% (rat blood dialysate; 250 ng/mL, 6 h, 10 °C, autosampler stability, with: NHC 1000 ng/mL).
With `CSCC[C@@H]1NC(=O)[C@H](CC(=O)O)NC(=O)CNC(=O)[C@H](CCCNC(=N)N)NC(=O)[C@H](C)NC(=O)[C@H](CCC(=O)O)NC(=O)[C@H](CCCNC(=N)N)NC(=O)[C@@H]2CSSC[C@@H]3NC(=O)[C@H](CO)NC(=O)[C@H]([C@@H](C)O)NC(=O)[C@@H]4CCCN4C(=O)[C@H](C)NC(=O)[C@H](Cc4c[nH]c5ccccc45)NC(=O)[C@H](CC(=O)O)NC(=O)CNC(=O)[C@H](CCCNC(=N)N)NC(=O)CNC(=O)[C@H](CCC(N)=O)NC(=O)[C@@H]4CCCN4C(=O)[C@@H](NC(=O)CNC(=O)C(C)F)CSSC[C@H](NC(=O)CNC(=O)[C@H](C)NC(=O)[C@H](CC(C)C)NC(=O)[C@H](CSSC[C@@H](C(=O)NCC(N)=O)NC(=O)[C@H]([C@@H](C)O)NC(=O)[C@H](CCCNC(=N)N)NC(=O)[C@@H]4CCCN4C1=O)NC(=O)[C@H](CC(=O)O)NC(=O)[C@H](CO)NC(=O)[C@H](CC(=O)O)NC(=O)[C@H](CCC(N)=O)NC(=O)[C@H](CO)NC3=O)C(=O)N[C@@H](C(C)C)C(=O)N2` (stereo partly drawn) [fluorine-18 labelled] the tissue uptake was 0.4 ± 0.1 %ID/g (nude mice U-87 MG xenograft, skin; intravenous, 2.5 h).
For `CC(C)C[C@H](NC(=O)[C@H](CCC(=O)O)NC(=O)[C@H](CCC(=O)O)NC(=O)[C@H](CC(=O)O)NC(=O)[C@H](CCC(=O)O)NC(=O)[C@H](CCC(=O)O)NC(=O)[C@H](CCC(=O)O)NC(=O)[C@@H](N)CC(=O)O)C(=O)O`, the concentration was 19.2 ng/mL (rat, CSF; intravenous, 11.0 mg/kg, 60 min).
`O=c1[nH]c(Cc2ccccn2)nc2c1cnn2C1CCOCC1` has a Tmax of 19.8 min (male human, plasma; oral, 2 mg, single dose).
`CC(C)C[C@H]1NC(=O)CNC(=O)[C@H]2CCCN2C(=O)CNC(=O)[C@@H](CCCNC(=N)N)NC(=O)[C@@H](Cc2ccccc2)NC(=O)CNC(=O)[C@@H](Cc2ccc(O)cc2)NC(=O)CNC(=O)[C@@H](CCCNC(=N)N)NC(=O)[C@@H](C)NC(=O)[C@@H](CCCNC(=N)N)NC(=O)[C@@H](Cc2ccccc2)NC(=O)[C@H](N)CSSC[C@H](C(=O)O)NC1=O` gave a stability time of greater than 23 h (RP-HPLC; MDCK cell lysate; pH 7.4, 37 °C).

Repeated from above:
The tissue uptake of `CN[C@@](C)(C[18F])C(=O)O` is reported as 1.1 ± 0.1 %ID/g (SCID mouse A549 xenograft, blood; 60 min, post injection).
